Measured values of several laboratories.
Numbered parts are unrelated; each lists some results of a single study.
Sequence of UniProt Q9UK32 (whole entry, looked up): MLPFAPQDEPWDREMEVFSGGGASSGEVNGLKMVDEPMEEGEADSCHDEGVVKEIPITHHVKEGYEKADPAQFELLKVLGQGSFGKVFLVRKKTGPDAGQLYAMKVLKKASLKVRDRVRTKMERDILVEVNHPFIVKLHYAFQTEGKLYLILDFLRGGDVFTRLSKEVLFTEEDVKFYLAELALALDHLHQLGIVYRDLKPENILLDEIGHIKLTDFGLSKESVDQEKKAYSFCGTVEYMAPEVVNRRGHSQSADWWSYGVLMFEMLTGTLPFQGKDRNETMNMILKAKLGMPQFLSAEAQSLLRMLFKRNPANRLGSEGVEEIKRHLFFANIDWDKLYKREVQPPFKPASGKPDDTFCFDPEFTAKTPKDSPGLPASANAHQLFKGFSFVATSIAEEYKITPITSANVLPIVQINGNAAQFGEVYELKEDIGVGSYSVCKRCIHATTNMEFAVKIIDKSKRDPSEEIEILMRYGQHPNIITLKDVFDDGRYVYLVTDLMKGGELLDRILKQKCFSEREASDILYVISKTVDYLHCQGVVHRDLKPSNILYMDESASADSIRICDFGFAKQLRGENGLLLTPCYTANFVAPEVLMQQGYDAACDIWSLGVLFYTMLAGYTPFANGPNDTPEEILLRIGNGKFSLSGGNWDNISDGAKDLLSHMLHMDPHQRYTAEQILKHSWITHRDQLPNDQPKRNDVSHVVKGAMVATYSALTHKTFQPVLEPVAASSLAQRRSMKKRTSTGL
Sequence of UniProt Q9UM73 (whole entry, unmodified, looked up): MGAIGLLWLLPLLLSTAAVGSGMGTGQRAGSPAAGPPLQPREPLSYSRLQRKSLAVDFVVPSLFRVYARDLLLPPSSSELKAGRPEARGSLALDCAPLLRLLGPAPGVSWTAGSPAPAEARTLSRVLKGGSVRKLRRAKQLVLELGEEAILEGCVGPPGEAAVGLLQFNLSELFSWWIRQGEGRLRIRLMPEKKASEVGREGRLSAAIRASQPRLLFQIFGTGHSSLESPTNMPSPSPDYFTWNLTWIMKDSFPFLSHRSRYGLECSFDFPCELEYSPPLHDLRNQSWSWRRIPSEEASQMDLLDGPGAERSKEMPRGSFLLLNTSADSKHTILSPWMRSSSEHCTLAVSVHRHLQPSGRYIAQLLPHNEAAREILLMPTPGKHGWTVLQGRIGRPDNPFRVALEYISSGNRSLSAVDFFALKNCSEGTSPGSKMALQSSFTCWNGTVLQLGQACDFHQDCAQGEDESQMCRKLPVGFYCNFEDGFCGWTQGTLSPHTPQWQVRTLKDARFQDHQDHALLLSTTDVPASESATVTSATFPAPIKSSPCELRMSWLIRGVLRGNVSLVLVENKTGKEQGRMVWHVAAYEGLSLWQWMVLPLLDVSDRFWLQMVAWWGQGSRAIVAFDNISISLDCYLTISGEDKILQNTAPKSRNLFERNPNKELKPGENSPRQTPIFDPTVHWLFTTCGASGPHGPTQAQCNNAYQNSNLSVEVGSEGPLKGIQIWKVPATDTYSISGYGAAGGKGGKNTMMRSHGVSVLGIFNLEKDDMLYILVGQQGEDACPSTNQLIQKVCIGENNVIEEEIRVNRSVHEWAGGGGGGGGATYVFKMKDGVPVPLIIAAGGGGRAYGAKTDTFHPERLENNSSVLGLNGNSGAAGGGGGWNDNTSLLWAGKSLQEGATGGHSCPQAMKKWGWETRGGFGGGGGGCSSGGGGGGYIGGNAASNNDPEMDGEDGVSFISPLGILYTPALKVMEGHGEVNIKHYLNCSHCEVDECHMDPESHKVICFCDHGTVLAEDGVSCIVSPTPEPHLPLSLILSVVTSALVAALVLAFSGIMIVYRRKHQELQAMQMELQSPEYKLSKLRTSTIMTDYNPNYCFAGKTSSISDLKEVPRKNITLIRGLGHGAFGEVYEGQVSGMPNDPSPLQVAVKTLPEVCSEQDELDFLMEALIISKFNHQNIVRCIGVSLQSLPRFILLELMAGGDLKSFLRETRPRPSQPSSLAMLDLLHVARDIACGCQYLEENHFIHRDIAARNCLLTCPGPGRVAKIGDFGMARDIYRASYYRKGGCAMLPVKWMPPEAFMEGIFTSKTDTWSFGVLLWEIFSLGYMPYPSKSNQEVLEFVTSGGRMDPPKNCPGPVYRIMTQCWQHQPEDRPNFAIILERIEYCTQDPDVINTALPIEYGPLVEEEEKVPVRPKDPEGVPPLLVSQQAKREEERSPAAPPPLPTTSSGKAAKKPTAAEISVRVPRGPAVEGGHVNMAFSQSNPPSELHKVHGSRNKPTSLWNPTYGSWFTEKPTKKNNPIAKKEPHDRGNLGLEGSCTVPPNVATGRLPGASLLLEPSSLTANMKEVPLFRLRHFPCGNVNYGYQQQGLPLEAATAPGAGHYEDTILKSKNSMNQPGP
Sequence of UniProt O95747 (whole entry, looked up): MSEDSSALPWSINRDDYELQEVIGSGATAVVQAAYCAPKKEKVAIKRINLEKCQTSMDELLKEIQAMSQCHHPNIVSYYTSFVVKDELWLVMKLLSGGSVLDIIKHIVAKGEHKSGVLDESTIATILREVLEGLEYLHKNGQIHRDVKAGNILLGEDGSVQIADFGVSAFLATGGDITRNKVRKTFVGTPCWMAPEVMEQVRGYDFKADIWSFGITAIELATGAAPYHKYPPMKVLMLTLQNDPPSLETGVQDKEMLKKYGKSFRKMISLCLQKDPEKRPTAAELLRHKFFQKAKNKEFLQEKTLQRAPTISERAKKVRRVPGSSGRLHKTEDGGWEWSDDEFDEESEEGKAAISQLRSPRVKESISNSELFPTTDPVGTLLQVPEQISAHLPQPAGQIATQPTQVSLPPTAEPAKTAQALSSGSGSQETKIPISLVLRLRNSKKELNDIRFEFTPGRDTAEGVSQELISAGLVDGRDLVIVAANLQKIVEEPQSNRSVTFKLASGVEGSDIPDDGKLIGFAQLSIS
Sequence of UniProt Q13557 (whole entry, looked up): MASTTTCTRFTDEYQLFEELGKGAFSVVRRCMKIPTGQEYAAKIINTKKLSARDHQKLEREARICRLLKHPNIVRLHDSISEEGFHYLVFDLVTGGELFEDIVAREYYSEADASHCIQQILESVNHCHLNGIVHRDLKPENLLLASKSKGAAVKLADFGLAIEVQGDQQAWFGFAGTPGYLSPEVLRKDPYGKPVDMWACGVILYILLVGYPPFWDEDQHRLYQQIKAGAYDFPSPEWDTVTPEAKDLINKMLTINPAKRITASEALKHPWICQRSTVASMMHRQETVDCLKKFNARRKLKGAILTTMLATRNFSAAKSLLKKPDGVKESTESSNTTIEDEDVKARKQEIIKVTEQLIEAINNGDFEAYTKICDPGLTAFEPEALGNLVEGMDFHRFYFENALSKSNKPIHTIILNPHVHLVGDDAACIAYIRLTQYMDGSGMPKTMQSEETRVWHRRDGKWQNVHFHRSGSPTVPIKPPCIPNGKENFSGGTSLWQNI
Sequence of UniProt P05771 (whole entry, looked up): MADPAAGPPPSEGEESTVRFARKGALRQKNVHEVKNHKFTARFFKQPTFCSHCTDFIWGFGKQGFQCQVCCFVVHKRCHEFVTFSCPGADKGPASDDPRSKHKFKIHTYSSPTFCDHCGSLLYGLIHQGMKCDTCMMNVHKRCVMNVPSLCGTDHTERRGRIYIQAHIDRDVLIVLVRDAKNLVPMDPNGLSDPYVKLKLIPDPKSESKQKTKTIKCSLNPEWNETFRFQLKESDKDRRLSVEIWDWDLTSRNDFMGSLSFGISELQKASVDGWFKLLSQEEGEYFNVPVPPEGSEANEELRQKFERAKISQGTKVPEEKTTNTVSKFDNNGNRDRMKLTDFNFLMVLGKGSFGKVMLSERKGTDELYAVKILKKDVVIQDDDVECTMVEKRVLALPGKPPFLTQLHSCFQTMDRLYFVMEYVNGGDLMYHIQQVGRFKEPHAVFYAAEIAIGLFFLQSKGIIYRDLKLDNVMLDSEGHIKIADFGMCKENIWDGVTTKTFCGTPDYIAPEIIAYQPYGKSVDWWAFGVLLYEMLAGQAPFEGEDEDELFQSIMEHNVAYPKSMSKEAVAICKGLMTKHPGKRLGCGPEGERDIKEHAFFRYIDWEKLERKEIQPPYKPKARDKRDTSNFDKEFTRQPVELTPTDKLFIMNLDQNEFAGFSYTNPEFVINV
Sequence of UniProt O24408 (whole entry, looked up): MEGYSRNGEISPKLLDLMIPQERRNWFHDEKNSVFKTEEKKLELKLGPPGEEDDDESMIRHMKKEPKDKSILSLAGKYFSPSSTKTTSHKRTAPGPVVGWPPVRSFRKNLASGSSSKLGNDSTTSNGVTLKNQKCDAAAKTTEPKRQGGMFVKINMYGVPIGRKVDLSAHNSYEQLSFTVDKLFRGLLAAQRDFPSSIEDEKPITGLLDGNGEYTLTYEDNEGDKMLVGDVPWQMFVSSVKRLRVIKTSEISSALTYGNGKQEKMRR
Sequence of UniProt Q9BRS2 (whole entry, looked up): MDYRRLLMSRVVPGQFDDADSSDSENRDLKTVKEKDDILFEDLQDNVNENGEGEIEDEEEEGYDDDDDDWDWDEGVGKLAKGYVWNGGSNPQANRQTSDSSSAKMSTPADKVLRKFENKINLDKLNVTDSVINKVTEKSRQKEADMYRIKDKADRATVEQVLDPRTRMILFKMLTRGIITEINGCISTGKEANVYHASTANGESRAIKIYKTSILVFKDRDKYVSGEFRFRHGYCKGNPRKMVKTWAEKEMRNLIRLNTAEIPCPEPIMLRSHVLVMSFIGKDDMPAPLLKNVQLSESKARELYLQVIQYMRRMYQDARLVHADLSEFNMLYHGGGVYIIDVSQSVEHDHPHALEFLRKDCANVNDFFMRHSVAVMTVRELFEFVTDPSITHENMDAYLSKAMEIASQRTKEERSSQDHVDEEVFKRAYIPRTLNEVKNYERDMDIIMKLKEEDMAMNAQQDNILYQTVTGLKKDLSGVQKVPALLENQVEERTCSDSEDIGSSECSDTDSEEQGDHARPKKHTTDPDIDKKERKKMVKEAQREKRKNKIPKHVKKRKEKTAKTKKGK

Set 1
Sequence: B1 (IAA6)
Method: two-hybrid
Reading: higher = firmer interaction
Measurement: positive tests
B1: IAA6 (Arabidopsis thaliana, UniProt Q38824); chain MAKEGLALEITELRLGLPGDNYSEISVCGSSKKKKRVLSDMMTSSALDTENENSVVSSVEDESLPVVKSQAVGWPPVCSYRRKKNNEEASKAIGYVKVSMDGVPYMRKIDLGSSNSYINLVTVLENLFGCLGIGVAKEGKKCEYIIIYEDKDRDWMLVGDVPWQMFKESCKRLRIVKRSDATGFGLQQD
partner = IAA18 (Arabidopsis thaliana, UniProt O24408); reference = out of 2 tests; value = 0
partner = IAA13 (Arabidopsis thaliana, UniProt Q38831); reference = out of 4 tests; value = 0
partner = IAA17 (Arabidopsis thaliana, UniProt P93830); reference = out of 4 tests; value = 2
partner = ARF1 538-665 (Arabidopsis thaliana, UniProt Q8L7G0); reference = out of 4 tests; value = 0
partner = ARF12 500-593 (Arabidopsis thaliana, UniProt Q9XID4); reference = out of 4 tests; value = 0
partner = ARF20 484-590 (Arabidopsis thaliana, UniProt Q9C7I9); reference = out of 4 tests; value = 0
partner = ARF5 788-902 (Arabidopsis thaliana, UniProt P93024); reference = out of 4 tests; value = 1
partner = ARF18 482-602 (Arabidopsis thaliana, UniProt Q9C5W9); reference = out of 2 tests; value = 0

Set 2
Structure (SMILES): CCN(CC)CCNC(=O)c1c(C)[nH]c(/C=C2\C(=O)Nc3ccc(F)cc32)c1C
Effect on: enzyme activity
Mode: inhibitor
Concentration: 0.5 µM
Reference: control
Measurement: remaining activity
target = Mitogen-activated protein kinase kinase kinase 3 (MAP3K3, Homo sapiens, UniProt Q99759); value = 42%
target = Protein kinase C alpha type (PRKCA, Homo sapiens, UniProt P17252); value = 79.9%
target = Inhibitor of nuclear factor kappa-B kinase subunit beta (IKBKB, Homo sapiens, UniProt O14920); value = 81%
target = Calcium/calmodulin-dependent protein kinase type II subunit delta (CAMK2D, Homo sapiens, UniProt Q13557); value = 11.6%
target = TGF-beta receptor type-2 (TGFBR2, Homo sapiens, UniProt P37173); value = 92.5%
target = TGF-beta receptor type-1 (TGFBR1, Homo sapiens, UniProt P36897); value = 101%
target = STE20/SPS1-related proline-alanine-rich protein kinase (STK39, Homo sapiens, UniProt Q9UEW8); value = 87.4%
target = Serine/threonine-protein kinase OSR1 (OXSR1, Homo sapiens, UniProt O95747); value = 105%
target = Calcium/calmodulin-dependent protein kinase kinase 2 (CAMKK2, Homo sapiens, UniProt Q96RR4); value = 65.3%
target = G protein-coupled receptor kinase 3 (GRK3, Homo sapiens, UniProt P35626); value = 94.8%
target = Serine/threonine-protein kinase Nek2 (NEK2, Homo sapiens, UniProt P51955); value = 106%
target = Serine/threonine-protein kinase 10 (STK10, Homo sapiens, UniProt O94804); value = 31.2%
target = Protein kinase C beta type, isoform beta-I (PRKCB, Homo sapiens, UniProt P05771); value = 90.2%
target = cAMP-dependent protein kinase catalytic subunit alpha (PRKACA, Homo sapiens, UniProt P17612); value = 89.1%
target = Tyrosine-protein kinase Lyn, isoform B (LYN, Homo sapiens, UniProt P07948); value = 34.6%

Set 3
SMILES: Cc1c(NC(=O)c2cc(C(N)=O)nc3cc(F)ccc23)c(C(F)(F)F)nn1Cc1ccc(C(C)(C)C)cc1
Effect on: cell-free assay
Method: competition with immobilised ligand
Concentration: 1 µM
Measurement: remaining binding
target = Phosphatidylinositol 4,5-bisphosphate 3-kinase catalytic subunit alpha isoform (PIK3CA, Homo sapiens, UniProt P42336, M1043I); value = 80%
target = Receptor-type tyrosine-protein kinase FLT3 (FLT3, Homo sapiens, UniProt P36888, F691L/ITD); value = 100%
target = Serine/threonine-protein kinase RIO1 (RIOK1, Homo sapiens, UniProt Q9BRS2); value = 93%
target = Serine/threonine-protein kinase WNK1 (WNK1, Homo sapiens, UniProt Q9H4A3); value = 100%
target = Activin receptor type-1-like (ACVRL1, Homo sapiens, UniProt P37023); value = 94%
target = ALK tyrosine kinase receptor (ALK, Homo sapiens, UniProt Q9UM73, L1196M); value = 83%
target = Dual specificity testis-specific protein kinase 1 (TESK1, Homo sapiens, UniProt Q15569); value = 100%
target = Protein kinase C theta type (PRKCQ, Homo sapiens, UniProt Q04759); value = 91%
target = Casein kinase I isoform gamma-3 (CSNK1G3, Homo sapiens, UniProt Q9Y6M4); value = 100%
target = Dual specificity tyrosine-phosphorylation-regulated kinase 2 (DYRK2, Homo sapiens, UniProt Q92630); value = 88%
target = Serine/threonine-protein kinase PLK4 (PLK4, Homo sapiens, UniProt O00444); value = 100%
target = Cyclin-dependent kinase 18 (CDK18, Homo sapiens, UniProt Q07002); value = 88%
target = Protein kinase C epsilon type (PRKCE, Homo sapiens, UniProt Q02156); value = 67%
target = Serine/threonine-protein kinase BRSK2 (BRSK2, Homo sapiens, UniProt Q8IWQ3); value = 100%
target = Calcium/calmodulin-dependent protein kinase type II subunit gamma (CAMK2G, Homo sapiens, UniProt Q13555); value = 82%
target = Mitogen-activated protein kinase kinase kinase 12 (MAP3K12, Homo sapiens, UniProt Q12852); value = 100%
target = Leucine-rich repeat serine/threonine-protein kinase 2 (LRRK2, Homo sapiens, UniProt Q5S007); value = 100%
target = Ribosomal protein S6 kinase alpha-6, N-terminal kinase domain (RPS6KA6, Homo sapiens, UniProt Q9UK32); value = 100%

Mixed results
Structure (SMILES) = CC(C)n1cnc(-c2ccc(F)cc2)c1-c1ncc(C(=O)Nc2ccc(N3CCN(C)CC3)cc2)[nH]1; method = phase 2a trial; species = idiopathic pulmonary fibrosis patients; dose = all arms; notes = grade 4 emergent event; measurement = patients with leukocytosis; value = 0%

A few entries again (set 3):
target = Dual specificity testis-specific protein kinase 1 (TESK1, Homo sapiens, UniProt Q15569); value = 100%
target = Protein kinase C theta type (PRKCQ, Homo sapiens, UniProt Q04759); value = 91%
target = Casein kinase I isoform gamma-3 (CSNK1G3, Homo sapiens, UniProt Q9Y6M4); value = 100%
target = Dual specificity tyrosine-phosphorylation-regulated kinase 2 (DYRK2, Homo sapiens, UniProt Q92630); value = 88%
target = Serine/threonine-protein kinase PLK4 (PLK4, Homo sapiens, UniProt O00444); value = 100%
